Measured values gathered from unrelated publications.
Every numbered part comes from another study and shows a few of its results, in no order.

Block 1
Target: Histone acetyltransferase KAT6A, winged helix 1, GST fusion (KAT6A, Homo sapiens, UniProt Q92794, residues 1-85)
Method: protein binding microarray
Form: double-stranded DNA, one strand shown
Matrix: in vitro
Concentration: not given
Notes: 8-mer, flanks averaged, mean of 2 arrays, mostly near background
Baseline: not given
Direction: higher = stronger binding
Quantity: E-score
Target sequence (chain): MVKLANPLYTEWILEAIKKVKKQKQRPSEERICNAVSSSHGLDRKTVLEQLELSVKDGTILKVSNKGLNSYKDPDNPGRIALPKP
ATAGATGG: -0.0821
AACGTTCT: -0.108
AACAAAGT: -0.12

Block 2
Target: Fragile X messenger ribonucleoprotein 1, C-terminal low-complexity region (Fmr1, Mus musculus, UniProt P35922)
Method: RNA Bind-n-Seq
Form: RNA
Matrix: in vitro
Concentration: 200 nM
Notes: whole 134-nt RNA, ends assumed
Together with: 150 mM KCl
Baseline: input library
Direction: higher = stronger binding
Quantity: log2 enrichment
GGGAGUUCUACAGUCCGACGAUCAGUCCUGUGCUACACAUCGUAUGUACCGAAUCGGGGAGGGGUUUGGGGAAAAAGGGGAAAGUAUUAUGUUACGCCGUUCGGAUCUGCACUUGGAAUUCUCGGGUGUCAAGG: 0.917
GGGAGUUCUACAGUCCGACGAUCACCAUGCAGGUGGGCAUCUUUGGGAAGUGGGGCAAGGGGGGGAUAGGGAGCGGGGUAACACUUUGGGAACAGGUGGUCCCAGGUCGUUUCUGGAAUUCUCGGGUGUCAAGG: 0.847
GGGAGUUCUACAGUCCGACGAUCAAGUCCUGUGCUACACAUCGUAUGUACCGAAUCGGAAAAAAAGGUGGAAAAAAAGGAAAGUAUUAUGUUACGCCGUUCGGAUCUGCACUUUGGAAUUCUCGGGUGUCAAGG: -1.05
GGGAGUUCUACAGUCCGACGAUCCCUGUGCUACACAUCGUAUGUACCGAAUCGGGGUUUUUGGGGAAAAAAAGGGGAAAGGGGAAAGUAUUAUGUUACGCCGUUCGGAUCUGCUGGAAUUCUCGGGUGUCAAGG: 0.266

Block 3
Target: RNA binding protein fox-1 homolog 2, RRM domain, GST-SBP tag (RBFOX2, Homo sapiens, UniProt O43251-10, residues 100-194)
Method: RNA Bind-n-Seq
Form: RNA
Matrix: in vitro
Concentration: 365 nM
Notes: natural RNA segment, single round, ends assumed
Baseline: no-protein control
Direction: higher = stronger binding
Quantity: RBNS enrichment (R)
Target sequence (chain): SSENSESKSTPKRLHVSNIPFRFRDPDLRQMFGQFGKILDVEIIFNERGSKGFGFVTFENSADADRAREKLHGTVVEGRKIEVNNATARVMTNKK
GGGAGUUCUACAGUCCGACGAUCCCUAGUUCUUCAUAGGGACUCUUAAAAUGCAGGAGAACCAUCCGAAGUCAACUCGGGGGACAUGCAAAAAUAACUAUAUAAGACAUUAAAAGAACAAAGAGUGAAAUAUUUGGAAUUCUCGGGUGCCAA: 0.503
GGGAGUUCUACAGUCCGACGAUCGCUUUCCGCGUACAGAAGUGCUUGCCCGGGGAGUCCCGCCUGACCUGCCUUCAUGUGGACCCUUAGAACAGCACUGGGAGACCAGCAGGACUCCUGAGAACUGUGCUGGUUGGAAUUCUCGGGUGCCAA: 0.371
GGGAGUUCUACAGUCCGACGAUCGAAUGGUUUUAUCUCCAAGGUGAUACCAAAAACGAGUCAUGGACGACAGGCCUGGCCUCACACGCCAGAUCCAAAAUGUUGACCUGGACAAUCUGUCCCUGGUGCCCAUGUGGAAUUCUCGGGUGCCAA: 0.184

Further values, each from its own experiment
PhoQ, residues 284 288 289 292 302 303 TAVSDG
fold induction (PhoP, residues 12 14 15 18 19 NMSFL (Escherichia coli, UniProt P23836); Sort-seq, measured: YFP reporter; E. coli; PhoQ-PhoP variant library, together with: 10 µM Mg2+; baseline: high Mg2+ state, higher = stronger signaling): 17.4

A few entries again (block 1):
ATAGATGG: -0.0821
AACGTTCT: -0.108
